Measured values from different studies.
Parts stem from different laboratories: compare values within a part only. Positions count from the first letter of the parent shown.
Sequence of UniProt P29376 (whole entry, looked up): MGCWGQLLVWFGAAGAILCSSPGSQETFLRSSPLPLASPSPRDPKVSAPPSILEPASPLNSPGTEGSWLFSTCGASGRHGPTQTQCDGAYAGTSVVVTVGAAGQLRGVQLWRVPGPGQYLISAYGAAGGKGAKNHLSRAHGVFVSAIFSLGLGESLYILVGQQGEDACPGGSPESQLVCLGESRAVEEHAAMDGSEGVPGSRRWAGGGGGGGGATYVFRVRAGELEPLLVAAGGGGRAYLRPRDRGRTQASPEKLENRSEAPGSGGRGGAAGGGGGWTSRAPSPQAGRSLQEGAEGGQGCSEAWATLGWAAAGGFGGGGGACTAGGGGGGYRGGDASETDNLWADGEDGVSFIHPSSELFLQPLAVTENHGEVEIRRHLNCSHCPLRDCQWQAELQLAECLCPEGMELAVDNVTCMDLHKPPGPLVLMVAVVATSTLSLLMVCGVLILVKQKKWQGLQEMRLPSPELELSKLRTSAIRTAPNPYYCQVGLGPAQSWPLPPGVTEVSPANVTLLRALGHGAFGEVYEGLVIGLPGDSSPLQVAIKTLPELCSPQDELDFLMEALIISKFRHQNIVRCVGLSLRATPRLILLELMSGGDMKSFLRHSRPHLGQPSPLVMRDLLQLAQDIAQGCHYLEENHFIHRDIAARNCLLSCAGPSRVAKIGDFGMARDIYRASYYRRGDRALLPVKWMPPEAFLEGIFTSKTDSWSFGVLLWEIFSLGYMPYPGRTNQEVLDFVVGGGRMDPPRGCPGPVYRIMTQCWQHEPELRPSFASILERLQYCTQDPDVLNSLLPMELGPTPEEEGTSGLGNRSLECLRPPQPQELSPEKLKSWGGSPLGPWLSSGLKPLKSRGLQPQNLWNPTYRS

Set 1
Target: CCNB2, cyclin fold, Cln2 fusion (human)
Method: yeast growth competition, sequencing
Sample: yeast
Setting: weak parent motif
Relative to: not given
Direction: higher = stronger binding
Starting sequence: viral docking peptide; CKVKRKLFGSENI
Change	normalised enrichment score
CKVKRKLAGSENI [F8A]	0.464
CKVKKKLLGSENI [R5K F8L]	0.382
CKVKRKLFGSANI [E11A]	0.823
CKVKKKLFGSENI [R5K]	-0.724
CKVKRKLFGSENA [I13A]	0.497
CKVKRALFGSENI [K6A]	0.706
CKVKAKLFGSENI [R5A]	0.00475
CKVKRKLFGAENI [S10A]	0.965
CKVKAKAFGSENI [R5A L7A]	0.455
CKVKRKLFGSEAI [N12A]	0.661

Set 2
Target: Protein max, full length (MAX, Homo sapiens, UniProt P61244-2, residues 1-151)
Method: protein-binding microarray
Molecule type: double-stranded DNA, one strand shown
Sample: in vitro
Concentration: not given
Setting: k-mer, scored over probes, only values ≥0.25
Direction: higher = stronger binding
Sequence	E-score
ATGCGGGA	0.259
GCATGCCC	0.405
ACGAGCAC	0.307
CCACACCA	0.254
CAGGCACG	0.313
CGTGTATC	0.348
CCTTGTGC	0.274
CACGAGTA	0.398

Set 3
Target: PABPC1L2, full length, GST fusion (mouse, UniProt A0ABA7IW68)
Method: RNAcompete
Molecule type: RNA
Sample: in vitro
Concentration: 20 nM
Setting: 7-mer, probes averaged, single round
Relative to: mean of 7-mers
Direction: higher = stronger binding
Target sequence (chain): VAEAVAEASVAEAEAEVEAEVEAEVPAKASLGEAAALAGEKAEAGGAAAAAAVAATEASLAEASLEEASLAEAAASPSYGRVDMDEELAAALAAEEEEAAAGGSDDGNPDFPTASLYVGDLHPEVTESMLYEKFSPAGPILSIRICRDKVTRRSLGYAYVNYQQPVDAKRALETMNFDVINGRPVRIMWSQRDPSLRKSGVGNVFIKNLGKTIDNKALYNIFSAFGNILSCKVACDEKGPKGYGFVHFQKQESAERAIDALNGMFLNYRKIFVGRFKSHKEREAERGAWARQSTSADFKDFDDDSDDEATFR
Sequence	7-mer Z-score
UUGUCUG	-0.364
AAAAACU	15.2
GGACAUC	0.102
UAUCUAG	-0.233
CGCGCAA	-0.242
CCACUAA	-0.0337
CAAUAAA	3.31
GGGAAUC	0.0678

Mixed results
Structure (SMILES)	target	assay	setting	quantity	result
O=C(Nc1cccc(Nc2cc(Nc3cccc(C(F)(F)F)c3)ncn2)c1)C1CC1	Leukocyte tyrosine kinase receptor (LTK, Homo sapiens, UniProt P29376)	enzyme activity, inhibitor, radiometric	0.5 µM	remaining activity	96.8%

Some of these lines once more (set 3):
Sequence	7-mer Z-score
GGACAUC	0.102
UAUCUAG	-0.233
CGCGCAA	-0.242
